Measurements gathered from unrelated publications.
Protocols differ between the studies behind these lines. “And” joins repeats or separate records; there may be more than shown. Numbers after ± are the reported error.
Sample: plasma

Cc1cc(O)c2c(c1)C(=O)c1cc(O)cc(O)c1C2=O.Cc1cc(O)c2c(c1)C(=O)c1cc(O)cc(O)c1C2=O.Cc1nc(C)c(C)nc1C
AUC(0-t) (Sprague Dawley rat; oral, 100 mg/kg): 5120 ± 2400 ng·h/mL

CCCCCCCOc1ccc(CC[C@](N)(CO)COP(=O)(O)O)cc1C(F)(F)F
AUC(0-t) (rat Sprague-Dawley male; oral, 1 mg/kg): 525 ng·h/mL

C=C(c1ncc(C(=O)O)cn1)c1cc2c(cc1C)C(C)(C)CCC2(C)C
AUC(0-t) (rat Sprague-Dawley male; oral, 100 mg/kg, sesame oil): 83300 ng·h/mL

COC(=O)/C=C/C(=O)c1ccc(OC)cc1
AUC(0-t) (Sprague-Dawley rat, both sexes; oral, 200 mg/kg): 2100 ± 271 ng·h/mL

CN1CCN(c2ccc(Nc3ncc(Cl)c(Nc4ccccc4P(C)(C)=O)n3)cc2Br)CC1
AUC(0-t) (Sprague-Dawley rat, male; oral, 25 mg/kg): 3130 ng·h/mL and 3250 ng·h/mL

C[Si]1(C)CNC(=O)c2ccccc21
AUC(0-t) (Sprague-Dawley rat, male; intravenous, 1 mg/kg): 556 ± 97 ng·h/mL

N=C(N)NCCC[C@H](NC(=O)[C@@H]1CCCN1C(=O)[C@H](Cc1ccccc1)NC(=O)[C@@H]1CCCN1C(=O)[C@H](Cc1c[nH]cn1)NC(=O)[C@@H](N)Cc1ccccc1)C(=O)O
AUC(0-t) (Sprague-Dawley rat male; oral gavage, 50 mg/kg, 150 min): 94.1 ± 30.9 ng·h/mL

COc1ccnc(C[S+]([O-])c2nc3cc(-n4cccc4)ccc3[nH]2)c1C (stereo not drawn)
AUC(0-t) ratio (male Sprague Dawley rats; oral, 1 mg/kg ilaprazole racemate; reference: compound over R-ilaprazole): 2.44

Cn1cc(C(N)=O)c(NC2C3CC4CC2CC(O)(C4)C3)c2ccnc1-2 (stereo not drawn)
AUC(0-t) (Japanese adults, moderate hepatic impairment; oral, 150 mg single dose): 1330 ng·h/mL

C=C(c1cc(F)c(C(=O)O)c(F)c1)c1cc2c(cc1C)C(C)(C)CCC2(C)C
AUC(0-t) (rat Sprague-Dawley male; oral, 100 mg/kg, sesame oil): 20500 ng·h/mL

CC(C)CNC(=O)/C=C/CCc1ccc2c(c1)OCO2
AUC(0-t) (rat, sham-operated; oral, 50 mg/kg): 112 ± 45.5 ng·h/mL

CC(C)(C)C(=O)Nc1ccc2[nH]c(CN3CCC(N(CCCN4CCOCC4)CC4OC(n5cnc6c(N)ncnc65)C(O)C4O)CC3)nc2c1 (stereo not drawn)
AUC(0-t) (Sprague-Dawley rat male; intravenous, 20 mg/kg): 2690 ± 620 ng·h/mL
